Assay results collected from several papers.
Compare with care: the assays were run in different laboratories. Numbers after ± are the reported error.

CNCc1ccc(-c2[nH]c3cc(F)cc4c3c2CCNC4=O)cc1
malignant neoplasm progression incidence (human patients; oral, 600 mg twice daily, grade 4): 0%

CC(C)(C(=O)N1CCOc2c(C#N)cncc2C1)C(F)F
subjects with TEAE (refers to: cutaneous vasculitis; human, both sexes; oral, 20 mg twice daily, 14 days, multiple ascending dose): 0%

COc1ccc2c(c1)CN(C(=O)CCN1CCC(Cc3ccccc3)CC1)CC[S@@+]2[O-]
QT interval (telemetry; conscious male beagle dogs; intravenous, 8 mg/kg, 4 h): 232 ± 11 ms

COc1cc2nccc(Oc3ccc(NC(=O)c4cc5c(n(-c6ccccc6)c4=O)CCCC5=O)nc3)c2cc1OC
patients with febrile neutropenia (human, relapsed/refractory AML; oral, 3 mg once daily, grade ≥3, any causality): 20%

Cc1nc(-c2ccc(OCC(C)C)c(C#N)c2)sc1C(=O)O
participants with AEs grade 3 or above (healthy Chinese subjects; oral, 40 mg single, fed): 0%

COc1ccc([C@@H](O)c2cc(-c3ncnc4cc(N5CCOCC5)ccc34)c(F)cc2Cl)nn1
drug-related proctitis incidence (locally advanced rectal cancer patients; 100 mg, together with: capecitabine and radiotherapy): 17%

CSc1ccccc1C(=O)NCCn1cc(C(=O)NCc2cccc(C)n2)c(=O)c2cc3c(cc21)OC(F)(F)O3
AUC(0-t) (Sprague-Dawley rat, male, plasma; intramuscular, 3 mg/kg of parent compound): 55 ± 14.2 ng·h/mL

CCO[C@H]1CCN(Cc2c(OC)cc(C)c3[nH]ccc23)[C@H](c2ccc(C(=O)O)cc2)C1
total Cmax (human moderate hepatic impairment, plasma; oral, 200 mg single dose, mean): 3310 ng/mL

Cc1cc(Nc2ncc(Cl)c(Nc3ccccc3S(=O)(=O)C(C)C)n2)c(OC(C)C)cc1C1CCNCC1
MTD (CD1 nude mouse; oral, 20 days): 50 mg/kg

CCn1c(=O)c(-c2cc(NC(=O)Nc3ccccc3)c(F)cc2Br)cc2cnc(NC)cc21
participants with grade ≥ 3 TEAE (refers to: accidental overdose; human, moderate hepatic impairment; oral, 50 mg single dose): 12.5%

CCCCCCCOc1ccc(CCC(N)(CO)CO)cc1C(F)(F)F.Cl
renal clearance (healthy men; oral, 0.75 mg, day 1): 0.199 mL/min

Cc1cc(-c2nnc(N)nc2-c2ccc(F)cc2)cc(Cl)n1
patients with immune-mediated AE (refers to: psoriasiform dermatitis; IO-naive mCRPC patients, male; oral, dose not given, treatment-related, grade 2): 0%

O=C(N[C@H](Cc1c[nH]c2ccccc12)C(=O)Nc1ccncc1)c1ccc(-c2cc(C(F)(F)F)ccc2F)cc1F
concentration (Swiss Webster mouse, female, lung; oral, 50 mg/kg, 8 h, 20% HPβCD vehicle): 32.2 µM

CN1CCN(C(=O)c2ccc3cc(CCNc4ccnc5ccc(C#N)cc45)ccc3c2)CC1
tissue/plasma ratio (female BALB/c mouse, CT26 tumour, tumour and blood; oral, 100 mg/kg; reference: tumour over blood): ~40

COc1ccc2c(=O)n(C)c(-c3ccccc3)nc2c1
tissue concentration (male Sprague-Dawley rat, testis; oral, 30 mg/kg, 4 h): 79.2 ng/g

C=CC(=O)Nc1cc(Nc2nccc(-c3cn(C)c4ccccc34)n2)c(OC)cc1N(C)CCN(C)C
percentage recovery (storage stability; human dried blood spot samples; 30 d, -80 °C, MQC level; reference: nominal concentration): 41%

NC(=O)N1c2ccccc2C=Cc2ccccc21
headache incidence (healthy human subjects; oral, dose not given, compound alone): 27%

CC(C)n1c(Nc2cccnc2)nc2cnc(Nc3ccc(N4CCN(C)CC4)cc3)nc21
subjects with adverse event (refers to: white blood cell count elevated; healthy male subjects; oral, 100 mg, study, together with: gemfibrozil): 7.1%

Repeated from above:
COc1ccc2c(=O)n(C)c(-c3ccccc3)nc2c1
tissue concentration (male Sprague-Dawley rat, testis; oral, 30 mg/kg, 4 h): 79.2 ng/g

C=CC(=O)Nc1cc(Nc2nccc(-c3cn(C)c4ccccc34)n2)c(OC)cc1N(C)CCN(C)C
percentage recovery (storage stability; human dried blood spot samples; 30 d, -80 °C, MQC level; reference: nominal concentration): 41%

NC(=O)N1c2ccccc2C=Cc2ccccc21
headache incidence (healthy human subjects; oral, dose not given, compound alone): 27%
